Assay results from different studies.
A part holds a random share of what one study measured.

Series 1 — technique: protein binding microarray; molecule type: double-stranded DNA, one strand shown; medium: in vitro; tested at: not given; reference: not given; direction: higher = stronger binding; measurement: E-score
Target: Histone acetyltransferase KAT6A, winged helix 1, GST fusion (KAT6A, Homo sapiens, UniProt Q92794, residues 1-85)
Notes: 8-mer, flanks averaged, mean of 2 arrays, mostly near background
Residues (chain): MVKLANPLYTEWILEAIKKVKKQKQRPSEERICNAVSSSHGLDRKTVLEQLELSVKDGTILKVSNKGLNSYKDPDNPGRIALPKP
AACCTTGT: -0.0122
AATTATAC: -0.0325
CCCTACTC: -0.0454
CCGCGATC: 0.352
GCATGAGC: -0.00468
ACCCACGG: 0.148
GATGTCTA: -0.046
AGCTACTA: 0.0323

Series 2 — technique: universal PBM; molecule type: double-stranded DNA, one strand shown; medium: in vitro; tested at: 600 nM; direction: higher = stronger binding; measurement: E-score
Target: Sal-like protein 4, full length isoform A (SALL4, Homo sapiens, UniProt Q9UJQ4, residues 1-1053)
Sequence of UniProt Q9UJQ4 (whole entry, looked up): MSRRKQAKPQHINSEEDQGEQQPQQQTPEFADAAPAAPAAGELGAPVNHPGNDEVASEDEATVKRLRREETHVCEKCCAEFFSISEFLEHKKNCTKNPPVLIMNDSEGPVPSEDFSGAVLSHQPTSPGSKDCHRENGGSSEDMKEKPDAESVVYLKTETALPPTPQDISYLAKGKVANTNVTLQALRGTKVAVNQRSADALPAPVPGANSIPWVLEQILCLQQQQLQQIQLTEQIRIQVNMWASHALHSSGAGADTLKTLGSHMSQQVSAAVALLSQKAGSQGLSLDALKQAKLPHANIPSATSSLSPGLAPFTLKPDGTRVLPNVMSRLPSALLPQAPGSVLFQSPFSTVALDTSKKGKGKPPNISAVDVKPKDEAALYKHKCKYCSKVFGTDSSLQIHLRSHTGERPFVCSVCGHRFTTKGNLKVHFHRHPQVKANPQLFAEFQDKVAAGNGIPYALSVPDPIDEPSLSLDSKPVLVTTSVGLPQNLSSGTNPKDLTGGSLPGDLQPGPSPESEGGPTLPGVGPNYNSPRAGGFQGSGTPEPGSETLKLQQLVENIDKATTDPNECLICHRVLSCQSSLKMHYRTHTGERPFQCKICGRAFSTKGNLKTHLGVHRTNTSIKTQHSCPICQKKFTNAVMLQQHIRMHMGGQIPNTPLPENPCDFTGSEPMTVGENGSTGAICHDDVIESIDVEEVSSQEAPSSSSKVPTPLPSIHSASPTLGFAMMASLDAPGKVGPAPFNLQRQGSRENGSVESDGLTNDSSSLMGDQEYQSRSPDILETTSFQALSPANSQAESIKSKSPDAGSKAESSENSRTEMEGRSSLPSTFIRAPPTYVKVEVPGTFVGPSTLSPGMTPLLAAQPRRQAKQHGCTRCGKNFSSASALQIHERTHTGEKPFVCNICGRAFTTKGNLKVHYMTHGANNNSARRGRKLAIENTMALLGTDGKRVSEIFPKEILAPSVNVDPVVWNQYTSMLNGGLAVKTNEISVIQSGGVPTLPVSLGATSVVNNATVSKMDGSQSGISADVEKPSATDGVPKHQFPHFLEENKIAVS
Notes: 8-mer, flanks averaged, mean of replicates
AGCAAGTA: 0.113
CGAGAGAA: -0.0829
AGAGTTTA: 0.226
ATTTCGAG: 0.163
ACAGCTTA: 0.0843
CTCTTAGC: -0.0279
AGTTTTGA: 0.142
GACTCCGA: -0.213

Series 3 — cell line: HEK-293T/ACE2; tested at: concentration not given; time: 16 (unit not given); reference: vehicle; measurement: viability
CCn1cc(C(=O)O)c(=O)c2cc(F)c(N3CCNC(C)C3)c(F)c21 (centres unmarked): 103%
CCCCN(CCCC)CC(O)c1cc(Cl)cc2c1-c1ccc(Cl)cc1/C2=C/c1ccc(Cl)cc1 (centres unmarked): 101%
NCCCNCCSP(=O)(O)O: 98.7%

Series 4 — technique: RNA Bind-n-Seq; molecule type: RNA; medium: in vitro; tested at: 365 nM; reference: no-protein control; direction: higher = stronger binding; measurement: RBNS enrichment (R)
Target: RNA binding protein fox-1 homolog 2, RRM domain, GST-SBP tag (RBFOX2, Homo sapiens, UniProt O43251-10, residues 100-194)
Notes: natural RNA segment, single round, ends assumed
Shared flanks, not repeated: GGGAGUUCUACAGUCCGACGAUC … UGGAAUUCUCGGGUGCCAA
Residues (chain): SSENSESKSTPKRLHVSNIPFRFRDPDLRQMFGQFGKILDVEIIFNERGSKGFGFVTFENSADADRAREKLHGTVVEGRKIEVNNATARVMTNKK
UCAUUUUUUUCAAGUUCUCUCAAGUGUCCCAAAUCAGGGUAGCAAUCUUGUUGCCACAUGUGCAGCAAACAAAGUGGAAGUAUAGAUCUUCUUCUCCCUUAGGGAGGCUC: 0.387
UUUCAGGGAAGGCAUGGAGGCAUAGUUUGGUUAGUUUCAUCACUAGGAUGUAUAAGGUGACGACACAAACCAAAUACCUUUCUUUCAUCACUUAACUAUACGUACUUUAU: 3.09
CAUAGCCUAGAGCUCAGUUUUAGUUUUAACAUUGUGAAAAUAUUAAAAGAAUCUUGUAACUUUAUUCUUUUUUCUCCUGCUGAAAAAAAAAAUUAAACCAAUCGUAUGAA: 1.24
UGCCUGGUACCAGAAGACAGGGAGGCAGAGACUGGGAGCCGUGAUGUGCCCUUGGGCUGAGCCCUAGACUUGGGGCUCUGUACAUAGCUAUGAAGAAAAACACAAAGUGU: 0.392
GAGGAGGCAGCUGUUGCAAUCAAGGCCAUGGCAAAAUACUGGCUCCCAGGGUGGCGGUGGUGGCAGCAGUGAUCCUCUGAACCUGCAGAGGCCCCCUCCCCGAGCCUGGC: 0.321

Series 5 — effect on: enzyme activity; mode: inhibitor; tested at: 20 µM; notes: primary screen; measurement: inhibition
Target: Replicase polyprotein 1ab, main protease (rep, Severe acute respiratory syndrome coronavirus 2, UniProt P0DTD1)
CO[C@@H]1[C@H](OC(=O)NC(=O)CCl)CC[C@]2(CO2)[C@H]1[C@@]1(C)O[C@@H]1CC=C(C)C: 64.9%
CNc1nc(Nc2cn(C(C)(C)C#N)nc2C)ncc1C(F)(F)F: 33.3%
Cc1ccc2c(c1)C1CN(C)CCC1N2 (centres unmarked): 37.9%
C[C@@H]1O[C@@H](Oc2c(-c3cc(O)c(O)c(O)c3)oc3cc(O)cc(O)c3c2=O)[C@@H](O)[C@H](O)[C@H]1O: 90.6%

Series 6 — effect on: enzyme activity; mode: inhibitor; tested at: 20 µM; measurement: inhibition
Target: Replicase polyprotein 1ab, polymerase (rep, Severe acute respiratory syndrome coronavirus 2, UniProt P0DTD1)
O=C1c2cccc(O)c2C(=O)c2c(O)cccc21: 2.48%
CC(C)OC(=O)OCOP(=O)(CO[C@H](C)Cn1cnc2c(N)ncnc21)OCOC(=O)OC(C)C: -4.27%
CC(=O)NC1CCSC1=O (centres unmarked): 2.62%
N[C@@H](CC(=O)NO)C(=O)O: -1.5%
O=c1ccc2cc(O[C@@H]3O[C@H](CO)[C@@H](O)[C@H](O)[C@H]3O)c(O)cc2o1: 2.76%
c1ccc2c(c1)CCC[C@H]2Nc1nc2ccccc2[nH]1: 6.01%
CC(=O)[C@H]1CC[C@H]2[C@@H]3C[C@H](C)C4=CC(=O)CC[C@]4(C)[C@H]3[C@@H](O)C[C@]12C: 19.4%
COc1ccc2cc1Oc1ccc(cc1)C[C@H]1c3cc(c(OC)cc3CCN1C)Oc1c(OC)c(OC)cc3c1[C@H](C2)N(C)CC3: -0.64%
C[C@H](N)Cc1cccc(O)c1: -2.07%
N[C@@H]1CCCN(c2c(/C=C3\SC(=O)NC3=O)cccc2-c2ccccc2)C1: -11.1%
CCCC[C@H](C)C[C@H](O)/C=C/[C@H]1[C@H](O)CC(=O)[C@@H]1CCCC/C=C/C(=O)O: 0.4%
Cc1noc(-c2ccc(-c3ccc(CC(=O)O)cc3)cc2)c1NC(=O)O[C@H](C)c1ccccc1: -1.81%
CO[C@@]1(NC(=O)C(C(=O)O)c2ccc(O)cc2)C(=O)N2C(C(=O)O)=C(CSc3nnnn3C)CO[C@@H]21 (some centres unmarked): 16.9%
COc1cc(Br)c(S(=O)(=O)Nc2ccc(Cl)c(O[C@@H]3CCN(C)C3)c2)cc1OC: -0.92%
O=C(NCCN1CCOCC1)c1ccc(Cl)cc1: -4.36%
CC[C@]12C=CCN3CC[C@@]4(c5cc([C@@]6(C(=O)OC)C[C@@H]7C[C@@H](C(C)(F)F)CN(Cc8c6[nH]c6ccccc86)C7)c(OC)cc5N(C)[C@H]4[C@@](O)(C(=O)OC)[C@@H]1OC(C)=O)[C@@H]32: 16.1%
O=C(NCc1ccncc1)C12CC3CC(C1)CC(c1ccc(Cl)cc1)(C3)C2: -3.31%
CSc1ccc(C(=O)N[C@@H]2CCCC[C@@H]2NC(=O)CNC(=O)c2cc(C(F)(F)F)ccc2NC(=O)NC(C)C)cc1: -2.68%
Nc1ccc2cc3ccc(N)cc3nc2c1: -27.3%
C[N+](C)(C)CCOC(=O)CCC(=O)OCC[N+](C)(C)C: 3.39%
CC(C)(Oc1ccc(Cl)cc1)C(=O)OCCOC(=O)c1cccnc1: 0.15%
NC1=NCC2c3ccccc3Cc3ccccc3N12 (centres unmarked): 1.52%
CN1CCN(C2=Nc3ccccc3Sc3ccc(Cl)cc32)CC1: 1.88%
COc1c(C)cnc(Cn2cnc3c(Cl)nc(N)nc32)c1C: -16.3%
CN(C)CCC(O)(c1ccccc1)c1ccccc1Cl (centres unmarked): -10.9%

Repeated from above (series 3):
CCn1cc(C(=O)O)c(=O)c2cc(F)c(N3CCNC(C)C3)c(F)c21 (centres unmarked): 103%
CCCCN(CCCC)CC(O)c1cc(Cl)cc2c1-c1ccc(Cl)cc1/C2=C/c1ccc(Cl)cc1 (centres unmarked): 101%
NCCCNCCSP(=O)(O)O: 98.7%
